Assay results of several laboratories.
Parts stem from different laboratories: compare values within a part only.

Series 1 — method: universal PBM; form: double-stranded DNA, one strand shown; sample: in vitro; tested at: not given; direction: higher = stronger binding
Target: Sal-like protein 4, full length isoform B (SALL4, Homo sapiens, UniProt Q9UJQ4-2, residues 1-616)
Setting: 8-mer, flanks averaged, mean of replicates
Construct (chain): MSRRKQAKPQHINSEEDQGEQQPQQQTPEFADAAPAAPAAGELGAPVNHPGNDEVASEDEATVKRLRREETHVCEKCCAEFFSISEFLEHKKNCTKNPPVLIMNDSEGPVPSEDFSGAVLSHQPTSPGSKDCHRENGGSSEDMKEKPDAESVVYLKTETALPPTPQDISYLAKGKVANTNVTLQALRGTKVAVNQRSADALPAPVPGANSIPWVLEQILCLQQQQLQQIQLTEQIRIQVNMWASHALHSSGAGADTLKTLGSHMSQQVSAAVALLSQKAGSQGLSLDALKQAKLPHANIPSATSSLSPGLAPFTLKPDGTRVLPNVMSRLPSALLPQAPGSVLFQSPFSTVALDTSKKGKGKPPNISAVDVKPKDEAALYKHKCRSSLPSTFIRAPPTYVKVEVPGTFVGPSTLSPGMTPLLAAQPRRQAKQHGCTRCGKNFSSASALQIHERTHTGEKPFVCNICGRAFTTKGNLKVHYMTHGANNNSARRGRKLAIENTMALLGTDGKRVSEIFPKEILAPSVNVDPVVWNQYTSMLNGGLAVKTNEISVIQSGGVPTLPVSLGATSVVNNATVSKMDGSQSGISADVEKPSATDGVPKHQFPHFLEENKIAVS
The E-score of `CCCAGAGG` is reported as -0.279.
`GTACGGGA` has an E-score of -0.0913.
`CGTTATAA` gave an E-score of 0.181.
For `GCTCTATA`, the E-score was 0.107.
`TAACCGCA` has an E-score of 0.089.

Series 2 — method: protein-binding microarray; form: double-stranded DNA, one strand shown; sample: in vitro; tested at: 2540 nM top; setting: 60-bp whole probe; together with: salmon DNA 0.4 mg/ml; baseline: random background probes; direction: higher = stronger binding
Target: Interferon regulatory factor 3, full length, phosphomimetic (IRF3, Homo sapiens, UniProt Q14653, residues 1-427, S386D/S396D/S398D/S402D/T404D/S405D)
All sequences stand within: GCCTAGCAC … GTGCTAGGTCTTGATTCGCTTGACGCTGCTG
Construct (chain): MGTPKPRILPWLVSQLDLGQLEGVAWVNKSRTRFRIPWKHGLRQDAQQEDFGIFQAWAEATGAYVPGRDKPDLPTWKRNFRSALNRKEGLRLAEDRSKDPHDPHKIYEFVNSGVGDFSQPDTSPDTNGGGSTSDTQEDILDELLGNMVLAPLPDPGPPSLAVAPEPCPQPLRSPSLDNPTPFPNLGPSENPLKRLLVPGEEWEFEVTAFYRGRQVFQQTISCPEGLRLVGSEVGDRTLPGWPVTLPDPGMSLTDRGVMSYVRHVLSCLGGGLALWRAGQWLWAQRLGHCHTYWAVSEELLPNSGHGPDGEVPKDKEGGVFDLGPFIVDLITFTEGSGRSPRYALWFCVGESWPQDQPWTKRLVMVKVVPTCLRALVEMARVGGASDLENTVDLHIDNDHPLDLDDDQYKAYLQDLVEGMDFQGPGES
`ATAGATCTCAGTATCGATTA` — result for “fitted relative affinity”: 1.09 z-score.
`GACGGTTCCCTTTTTCTGAC`: “fitted relative affinity” 5.89 z-score.
`GACGAACTGAGTTACGAGAC` — result for “fitted relative affinity”: -0.124 z-score.
For `TCAGCTCTGATGTTGGGACT`, “fitted relative affinity” read -0.607 z-score.
Under “fitted relative affinity”, `TCATATTGCTTTCTCTTACT` is recorded as 1.8 z-score.
Under “fitted relative affinity”, `GACGGTTCCATTTTCCTGAC` is recorded as 5.33 z-score.

Series 3 — method: protein binding microarray; form: double-stranded DNA, one strand shown; sample: in vitro; tested at: not given; baseline: not given; direction: higher = stronger binding
Target: Histone acetyltransferase KAT6A, both winged helices, GST fusion (KAT6A, Homo sapiens, UniProt Q92794, residues 1-181)
Setting: 8-mer, flanks averaged, mean of 2 arrays, mostly near background
Residues (chain): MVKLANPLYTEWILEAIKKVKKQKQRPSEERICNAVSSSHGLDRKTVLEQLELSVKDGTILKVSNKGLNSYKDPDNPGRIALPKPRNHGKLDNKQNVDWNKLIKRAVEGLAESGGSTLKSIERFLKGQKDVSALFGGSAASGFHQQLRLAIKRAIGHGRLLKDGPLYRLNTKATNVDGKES
For `ATGCCCCC`, the E-score was -0.166.
The E-score of `GATCTAAC` is reported as -0.0496.
`CATCGGTA` has an E-score of 0.0712.
With `AGGACTAA` the E-score was -0.0801.
`ATAGTCAA` has an E-score of -0.114.
The E-score of `GGAACGAC` is reported as -0.0262.
The E-score of `TGTACAAA` is reported as -0.0881.

Mixed results
`PhoQ, residues 284 288 289 292 302 303 ASTSDA` has a fold induction of 1.2 (PhoP, residues 12 14 15 18 19 SPWRL (Escherichia coli, UniProt P23836); Sort-seq, refers to: YFP reporter; E. coli; PhoQ-PhoP variant library, together with: 10 µM Mg2+; baseline: high Mg2+ state, higher = stronger signaling).
